Published values pooled from the literature.
Every numbered part comes from another study and shows a few of its results, in no order.

Set 1
Target: Histone acetyltransferase KAT6A, winged helix 2, GST fusion (KAT6A, Homo sapiens, UniProt Q92794, residues 85-181)
Technique: protein binding microarray
Form: double-stranded DNA, one strand shown
Matrix: in vitro
Concentration: not given
Notes: 8-mer, flanks averaged, mean of 2 arrays, mostly near background
Relative to: not given
Reading: higher = stronger binding
Target sequence (chain): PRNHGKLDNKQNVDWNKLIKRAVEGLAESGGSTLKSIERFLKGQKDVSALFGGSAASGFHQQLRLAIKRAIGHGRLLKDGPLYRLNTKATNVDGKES
For `GACGGGAC`, the E-score was -0.0195.
For `AACTGGCG`, the E-score was 0.0654.
`AACACATG` has an E-score of 0.0351.

Other studies, line by line
IRF3 S386D/S396D/S398D/S402D/T404D/S405D full length, phosphomimetic: Interferon regulatory factor 3, full length, phosphomimetic (IRF3, Homo sapiens, UniProt Q14653, residues 1-427, S386D/S396D/S398D/S402D/T404D/S405D)
Sequence of UniProt Q14653 (whole entry, unmodified, looked up): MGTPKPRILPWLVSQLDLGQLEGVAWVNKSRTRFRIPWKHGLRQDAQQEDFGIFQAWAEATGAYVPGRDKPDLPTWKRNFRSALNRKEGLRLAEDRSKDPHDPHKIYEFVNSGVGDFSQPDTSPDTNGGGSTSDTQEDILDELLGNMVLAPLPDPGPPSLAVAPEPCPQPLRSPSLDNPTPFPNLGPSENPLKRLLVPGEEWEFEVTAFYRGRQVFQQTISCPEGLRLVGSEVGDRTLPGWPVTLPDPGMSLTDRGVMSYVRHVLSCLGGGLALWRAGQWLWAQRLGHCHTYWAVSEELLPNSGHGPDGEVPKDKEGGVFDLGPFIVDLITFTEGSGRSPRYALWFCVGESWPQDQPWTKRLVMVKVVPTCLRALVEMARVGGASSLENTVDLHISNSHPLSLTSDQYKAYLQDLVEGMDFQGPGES
For `GCCTAGCACGACGGACTGGACTTTCGGGAAGTGCTAGTCTTGATTCGCTTGACGCTGCTG`, “fitted relative affinity” read -0.126 z-score (IRF3 S386D/S396D/S398D/S402D/T404D/S405D full length, phosphomimetic; protein-binding microarray; double-stranded DNA, one strand shown, in vitro; 2540 nM top, 60-bp whole probe, together with: salmon DNA 0.4 mg/ml; relative to: random background probes, higher = stronger binding).
For `CAGGTAAA`, the E-score was 0.218 (Sal-like protein 4, full length isoform A (SALL4, Homo sapiens, UniProt Q9UJQ4, residues 1-1053); universal PBM; double-stranded DNA, one strand shown, in vitro; 600 nM, 8-mer, flanks averaged, mean of replicates; higher = stronger binding).
`PhoQ, residues 284 288 289 292 302 303 TNASYF` gave a fold induction of 2.55 (PhoP, residues 12 14 15 18 19 SPWRL (Escherichia coli, UniProt P23836); Sort-seq, measured: YFP reporter; E. coli; PhoQ-PhoP variant library, together with: 10 µM Mg2+; relative to: high Mg2+ state, higher = stronger signaling).
For `GCGAGCGC`, the E-score was -0.264 (Sal-like protein 4, full length isoform B (SALL4, Homo sapiens, UniProt Q9UJQ4-2, residues 1-616); universal PBM; double-stranded DNA, one strand shown, in vitro; not given, 8-mer, flanks averaged, mean of replicates; higher = stronger binding).
For `GCCTAGCACTTAGGTATCGACTATCGGTAAGTGCTAGTCTTGATTCGCTTGACGCTGCTG`, “fitted relative affinity” read 0.513 z-score (IRF3 S386D/S396D/S398D/S402D/T404D/S405D full length, phosphomimetic; protein-binding microarray; double-stranded DNA, one strand shown, in vitro; 2540 nM top, 60-bp whole probe, together with: salmon DNA 0.4 mg/ml; relative to: random background probes, higher = stronger binding).

Some of these lines once more (other studies, line by line):
For `GCGAGCGC`, the E-score was -0.264 (Sal-like protein 4, full length isoform B (SALL4, Homo sapiens, UniProt Q9UJQ4-2, residues 1-616); universal PBM; double-stranded DNA, one strand shown, in vitro; not given, 8-mer, flanks averaged, mean of replicates; higher = stronger binding).
